Experimental data of several laboratories.
Lines come from different studies, so protocols differ. Numbers after ± are the reported error. ≈ marks a conversion by molar mass, not a printed value.

Structure (SMILES)	test	test system	conditions	how to read	measurement	result
CC(C)CC(=O)C(=O)C(O)CO (centres unmarked)	–	aqueous buffer	1 to 5 mM, pH 7.4	–	surface tension decrease	~17 mN/m
CN1CCN(c2ccc(Nc3ncc(Cl)c(Nc4ccccc4P(C)(C)=O)n3)cc2Br)CC1	–	male Sprague-Dawley rat, plasma	oral, 25 mg/kg	–	MRT(0-inf)	22.8 h
C#CCOc1ccc(/C=C2\SC(=O)N(CC(=O)NCc3ccccc3)C2=O)cc1	inverse Kirkwood-Buff integrals	binary solvent mixture	298.15 K, mole fraction x1 0.75	–	Kirkwood-Buff integral G2,3	-367 cm³/mol
CC(C)(C)ONc1nc(Nc2ccnc(C(F)(F)F)c2)nc(-c2cccc(C(F)(F)F)n2)n1	–	female Balb/cA nude mice xenograft, plasma	oral, 54.14 mg/kg	–	AUC(0-24 h)	58900 ng·h/mL
CCOCn1cc(F)c(=O)n(C(=O)c2cccc(C(=O)Oc3cc(OC(=O)c4cc(OC(=O)CC)nc(OC(=O)CC)c4)c(Cl)cn3)c2)c1=O	–	human patients	oral, dose not given, phase I/II, preliminary	–	tolerability	not toxic
Cc1[nH]nc2c1N=C(c1ccccc1Cl)c1cnc(N3CCOCC3)cc1N2	–	human, feces and urine	oral, 10 mg	baseline: dose	excretion in feces and urine	68.9%
[11CH3]c1ccc2nc(C3CCC3)n(-c3ccc4[nH]ncc4c3)c2n1	–	human female, ovaries	–	–	absorbed radiation dose	4.2 µSv/MBq
CC(C)C[C@@H](NC(=O)[C@H](NC(=O)[C@H]1CCCN1)[C@H](C)O)C(=O)N[C@H](Cc1c[nH]cn1)C(=O)N[C@@H](C(=O)N[C@H](Cc1c[nH]cn1)C(=O)N[C@H](CC(N)=O)C(=O)N[C@H](CCCNC(=N)N)C(=O)N[C@H](CCCNC(=N)N)C(=O)N[C@H](CCCNC(=N)N)C(=O)N[C@H](CCCNC(=N)N)C(=O)N[C@H](CCCNC(=N)N)C(N)=O)[C@H](C)O	–	beagle dog, plasma	intravenous, 3 mg/kg, single dose	–	Cmax	32000 ng/mL
Cn1c(=O)oc2ccc(-c3ccc(CC(C#N)NC(=O)C4CNCCCO4)c(F)c3)cc21 (centres unmarked)	–	human	oral, 40 mg once daily, TEAE, multiple ascending dose	–	triglycerides increased incidence	33.3%
NCC(=O)N1CCC[C@H]1C(=O)N1C[C@H](O)C[C@H]1C(=O)O	–	–	25 °C, MAH complex, ionic strength 0.15, together with: Fe(III)	–	log β	22.5
CCCC[C@H](NC(=O)CNC(=O)CNC(=O)CN1CCN(CC(=O)O)CCN(CC(=O)O)CCN(CC(=O)O)CC1)C(=O)N[C@H]1CC(=O)NCCCC[C@@H](C(N)=O)NC(=O)[C@H](Cc2c[nH]c3ccccc23)NC(=O)[C@H](CCCNC(=N)N)NC(=O)[C@@H](Cc2ccccc2)NC(=O)[C@H](Cc2c[nH]cn2)NC1=O [copper-64 labelled]	–	female C57 mouse, B16/F1 melanoma	intravenous, 0.037 MBq, 0.5 h	baseline: tumour over liver	uptake ratio	0.48
Cc1ccc(OCC(=O)O)cc1	–	Sprague-Dawley rat, male, plasma	oral gavage, 30 mg/kg of parent drug	baseline: compound over parent drug	AUC(0-last) ratio	2380
COCC1CN(C2CCN(c3cc(OC)c(Nc4ncc(Br)c(Nc5ccc6c(c5P(C)(C)=O)OCCO6)n4)cc3C)CC2)C1	–	human patients	oral, dose not given	–	grade ≥3 treatment-related hypercalcemia	3.7%
COc1cc(OC)cc(C2=C3C(C)=C(I)C(C)=[N+]3[B-](F)(F)n3c(/C=C/c4c[nH]c5ccc([N+](=O)[O-])cc45)c(I)c(C)c32)c1	–	dichloromethane	–	–	absorption maximum	606 nm
N=C(N)NCCC[C@@H]1NC(=O)[C@H](Cc2c[nH]c3ccccc23)NC(=O)[C@@H](CC2CCCCC2)NC(=O)[C@@H]2CCCN2C(=O)[C@@H](NC(=O)CCc2ccccc2)CCCNC1=O	two-compartment model	C57BL/6J mice, plasma	subcutaneous, 1 mg/kg	–	beta rate constant	0.03 min⁻¹
C[C@H]1C[C@@H](Oc2cccc(F)n2)CCN1Cc1cnc(N[11C](C)=O)s1	–	monkey brain homogenate	at least 30 min, room temperature	–	radioligand stability	98.2%

Structure (SMILES)	test	test system	conditions	how to read	measurement	result
CCC1CNC(CC)CN(C(C(=O)[O-])c2ccc(C(=O)[O-])cc2)C(CC)CN(CC(=O)[O-])C(CC)CN1.[Mn+2] (centres unmarked)	ICP-MS	BALB/c mice, intestine	intravenous, 0.05 mmol/kg, 30 min	–	Mn content	13.9 µg/g
Cc1ccccc1/N=N/c1ccc(/N=N/c2c(O)ccc3ccccc23)c(C)c1	–	rat whole blood QC samples	16.0 µg/L, 8 h, room temperature, short-term stability	–	measured concentration	16.2 µg/L
CCCCCCCCCCCCCC(=O)N[C@@H](CO)C(=O)N[C@H](C(=O)N[C@@H](Cc1ccc(O)cc1)C(=O)N[C@@H](CCCNC(=N)N)C(=O)N[C@@H](CCCNC(=N)N)C(=O)NCC(=O)N[C@@H](C)C(=O)N[C@@H](CCCNC(=N)N)C(=O)N[C@@H](CCCNC(=N)N)C(=O)N[C@@H](Cc1c[nH]c2ccccc12)C(=O)N[C@@H](CCCNC(=N)N)C(=O)N[C@@H](CCCCN)C(=O)N[C@@H](CC(C)C)C(=O)O)[C@@H](C)CC	–	Sprague-Dawley rat, CA1 neurons, hippocampal slices	5 µM, 15 min	–	baseline AMPAR EPSC	no effect
C[Si](C)(C[C@@H](CN)CC(=O)O)C1CC1	neuromuscular coordination	Wistar rat male	oral, 300 mg/kg, 1 h	–	performance time	180 s
COc1ccc2cc(-c3ccc(-c4ccc(C)cn4)nc3)oc2c1	TCSPC	water, HEPES 100 mM	pH 7.4	–	radiative decay rate constant	0.1 ns⁻¹
CC(=O)N[C@H](CC(=O)O)C(=O)N[C@H](Cc1c[nH]c2ccccc12)C(=O)N[C@H](Cc1ccccc1)C(=O)N[C@H](CCCCN)C(=O)N[C@H](C)C(=O)N[C@H](Cc1ccccc1)C(=O)N[C@H](Cc1ccc(O)cc1)C(=O)N[C@H](CC(=O)O)C(=O)N[C@H](CCCCN)C(=O)N[C@@H](C(=O)N[C@H](C)C(=O)N[C@H](CCC(=O)O)C(=O)N[C@H](CCCCN)C(=O)N[C@H](Cc1ccccc1)C(=O)N[C@H](CCCCN)C(=O)N[C@H](CCC(=O)O)C(=O)N[C@H](C)C(=O)N[C@H](Cc1ccccc1)C(N)=O)C(C)C	–	statin-treated high-risk CHD men, plasma	oral, 100 mg daily, day 13, 0 to 8 h, mean, detected subjects only	–	Cmax	2.72 ng/mL
C=C(c1ncc(C(=O)O)cn1)c1cc2c(cc1C)C(C)(C)CCC2(C)C	–	Sprague-Dawley rat, male, plasma	oral, 100 mg/kg, 3 h, sesame oil vehicle	–	LDL level	19 ± 8.1 mg/dL
COc1cc(NC(C)=O)c2c(c1O)-c1c(OC)c(OC)cc3c1C(C2)N(C)CC3 (centres unmarked)	–	rat heart homogenate	0.5 µg/mL, 40 d, -20 °C, long-term storage	–	remaining compound	87.5 ± 2.4%
CCCC(CCC)NC(=O)c1ccc(OC2OC(C(=O)O)C(O)C(O)C2O)c(OC)c1 (centres unmarked)	–	male Sprague-Dawley rats, plasma	oral, 50 mg/kg of parent drug	baseline: 50 over 20 mg/kg dose	AUC(0-last) ratio	2.17
C[N+](C)(C)C[C@@H](O)CC(=O)O.O=C([O-])[C@H](O)Cc1ccccc1	–	water	concentration not given	–	pH	3.96 ± 0.3
O=C(NC1CC1)N1CC=C(c2cc3c(Nc4cc5ncsc5cc4F)ncnc3s2)CC1	–	human liver microsomes	1 µM	–	intrinsic clearance	< 12 mL/min/g protein
Cc1ccc(NCC(=O)Nc2ccc(F)c(Cl)c2)cc1S(=O)(=O)N(C)C	–	water	–	–	kinetic solubility	181 µM (≈ 72.4 µg/mL)
CN1CCC[C@]1(C)/C=C/S(=O)(=O)NC(=O)Nc1c2c(cc3c1CCC3)CCC2	–	human, plasma	oral, 400 mg, single dose	–	Tmax	1 h
CSCOC1C(=O)C2(C)C(OCSC)CC3OCC3(OC(C)=O)C2C(OC(=O)c2ccccc2)C2(O)CC(OC(=O)C(O)C(C=C(C)C)NC(=O)OC(C)(C)C)C(C)=C1C2(C)C (centres unmarked)	–	female Sprague-Dawley rat, plasma	intravenous, 4 mg/kg	–	clearance	66.7 mL/min/kg
C#CCN(CCCNC(=O)CCCCC[N+]1=C(/C=C/C2=C(Cl)C(=C/C=C3\N(CCCCCC(=O)[O-])c4ccccc4C3(C)C)/CCC2)C(C)(C)c2ccccc21)CCCOc1ccc(Cl)cc1Cl	–	C57BL mouse, plasma	intravenous, 5 mg/kg	–	terminal half-life	0.61 h
CC12CC(c3ccc(S(C)(=O)=O)cc3)C3=C4CCC(=O)C=C4CCC3C1CCC2(O)C(F)(F)C(F)(F)F (centres unmarked)	–	human	oral, 5 mg single	baseline: subjects	drug-related constipation incidence	33.3%
